Experimental data collected from several papers.
Every numbered part comes from another study and shows a few of its results, in no order. Several values in a cell are separate wells, animals, samples, runs or records. Substitutions count along the parent as printed.
Sequence of UniProt P31749 (whole entry, looked up): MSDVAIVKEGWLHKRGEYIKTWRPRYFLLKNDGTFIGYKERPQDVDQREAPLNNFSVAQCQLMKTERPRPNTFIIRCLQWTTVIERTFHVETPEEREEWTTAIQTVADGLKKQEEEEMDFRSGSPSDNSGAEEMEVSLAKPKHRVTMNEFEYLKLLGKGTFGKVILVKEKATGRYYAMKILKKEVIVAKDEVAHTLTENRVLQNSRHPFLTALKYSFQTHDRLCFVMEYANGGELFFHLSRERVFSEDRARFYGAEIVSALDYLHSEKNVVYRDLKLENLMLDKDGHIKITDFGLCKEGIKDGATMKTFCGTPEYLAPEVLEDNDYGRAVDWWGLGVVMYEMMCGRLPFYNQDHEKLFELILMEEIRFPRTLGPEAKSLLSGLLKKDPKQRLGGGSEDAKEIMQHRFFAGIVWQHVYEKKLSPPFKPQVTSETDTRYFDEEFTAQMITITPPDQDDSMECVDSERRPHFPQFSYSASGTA
Sequence of UniProt P31751 (whole entry, looked up): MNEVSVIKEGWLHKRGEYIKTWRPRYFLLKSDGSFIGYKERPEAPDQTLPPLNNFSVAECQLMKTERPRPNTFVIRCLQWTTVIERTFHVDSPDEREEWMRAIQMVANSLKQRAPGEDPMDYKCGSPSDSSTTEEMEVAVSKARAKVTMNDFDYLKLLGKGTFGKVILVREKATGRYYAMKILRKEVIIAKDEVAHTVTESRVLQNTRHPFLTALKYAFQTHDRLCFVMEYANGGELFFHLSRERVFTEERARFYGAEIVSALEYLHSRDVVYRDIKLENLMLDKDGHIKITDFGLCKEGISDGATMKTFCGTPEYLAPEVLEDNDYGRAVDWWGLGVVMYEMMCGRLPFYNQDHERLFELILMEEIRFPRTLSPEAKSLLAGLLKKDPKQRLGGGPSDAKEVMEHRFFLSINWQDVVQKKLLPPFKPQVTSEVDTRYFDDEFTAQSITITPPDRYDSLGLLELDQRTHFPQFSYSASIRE
Sequence of UniProt Q16644 (whole entry, looked up): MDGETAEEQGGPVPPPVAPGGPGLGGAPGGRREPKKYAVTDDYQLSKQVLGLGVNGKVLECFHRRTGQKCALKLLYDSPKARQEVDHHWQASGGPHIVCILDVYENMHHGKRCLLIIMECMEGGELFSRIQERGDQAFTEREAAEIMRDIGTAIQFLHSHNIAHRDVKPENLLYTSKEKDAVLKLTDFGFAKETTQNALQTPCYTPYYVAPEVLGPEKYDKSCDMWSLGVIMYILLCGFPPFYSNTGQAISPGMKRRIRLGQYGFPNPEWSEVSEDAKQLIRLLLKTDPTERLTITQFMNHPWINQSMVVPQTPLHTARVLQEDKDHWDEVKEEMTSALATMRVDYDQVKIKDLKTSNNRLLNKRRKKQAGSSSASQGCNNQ
Sequence of UniProt Q9Y243 (whole entry, looked up): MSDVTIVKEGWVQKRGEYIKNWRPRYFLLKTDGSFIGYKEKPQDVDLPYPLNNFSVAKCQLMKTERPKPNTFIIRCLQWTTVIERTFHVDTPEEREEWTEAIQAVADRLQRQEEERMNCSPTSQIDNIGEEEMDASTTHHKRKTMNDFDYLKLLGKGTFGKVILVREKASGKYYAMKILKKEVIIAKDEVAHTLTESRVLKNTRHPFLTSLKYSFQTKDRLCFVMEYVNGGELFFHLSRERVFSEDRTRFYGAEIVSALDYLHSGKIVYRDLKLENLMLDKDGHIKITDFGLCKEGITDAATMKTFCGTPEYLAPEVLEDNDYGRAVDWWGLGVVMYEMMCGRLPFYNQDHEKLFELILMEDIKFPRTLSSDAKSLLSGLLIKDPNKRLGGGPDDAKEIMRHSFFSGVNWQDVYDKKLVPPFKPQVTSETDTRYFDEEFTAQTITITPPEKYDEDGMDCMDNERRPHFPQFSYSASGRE
Sequence of UniProt Q15746 (whole entry, looked up): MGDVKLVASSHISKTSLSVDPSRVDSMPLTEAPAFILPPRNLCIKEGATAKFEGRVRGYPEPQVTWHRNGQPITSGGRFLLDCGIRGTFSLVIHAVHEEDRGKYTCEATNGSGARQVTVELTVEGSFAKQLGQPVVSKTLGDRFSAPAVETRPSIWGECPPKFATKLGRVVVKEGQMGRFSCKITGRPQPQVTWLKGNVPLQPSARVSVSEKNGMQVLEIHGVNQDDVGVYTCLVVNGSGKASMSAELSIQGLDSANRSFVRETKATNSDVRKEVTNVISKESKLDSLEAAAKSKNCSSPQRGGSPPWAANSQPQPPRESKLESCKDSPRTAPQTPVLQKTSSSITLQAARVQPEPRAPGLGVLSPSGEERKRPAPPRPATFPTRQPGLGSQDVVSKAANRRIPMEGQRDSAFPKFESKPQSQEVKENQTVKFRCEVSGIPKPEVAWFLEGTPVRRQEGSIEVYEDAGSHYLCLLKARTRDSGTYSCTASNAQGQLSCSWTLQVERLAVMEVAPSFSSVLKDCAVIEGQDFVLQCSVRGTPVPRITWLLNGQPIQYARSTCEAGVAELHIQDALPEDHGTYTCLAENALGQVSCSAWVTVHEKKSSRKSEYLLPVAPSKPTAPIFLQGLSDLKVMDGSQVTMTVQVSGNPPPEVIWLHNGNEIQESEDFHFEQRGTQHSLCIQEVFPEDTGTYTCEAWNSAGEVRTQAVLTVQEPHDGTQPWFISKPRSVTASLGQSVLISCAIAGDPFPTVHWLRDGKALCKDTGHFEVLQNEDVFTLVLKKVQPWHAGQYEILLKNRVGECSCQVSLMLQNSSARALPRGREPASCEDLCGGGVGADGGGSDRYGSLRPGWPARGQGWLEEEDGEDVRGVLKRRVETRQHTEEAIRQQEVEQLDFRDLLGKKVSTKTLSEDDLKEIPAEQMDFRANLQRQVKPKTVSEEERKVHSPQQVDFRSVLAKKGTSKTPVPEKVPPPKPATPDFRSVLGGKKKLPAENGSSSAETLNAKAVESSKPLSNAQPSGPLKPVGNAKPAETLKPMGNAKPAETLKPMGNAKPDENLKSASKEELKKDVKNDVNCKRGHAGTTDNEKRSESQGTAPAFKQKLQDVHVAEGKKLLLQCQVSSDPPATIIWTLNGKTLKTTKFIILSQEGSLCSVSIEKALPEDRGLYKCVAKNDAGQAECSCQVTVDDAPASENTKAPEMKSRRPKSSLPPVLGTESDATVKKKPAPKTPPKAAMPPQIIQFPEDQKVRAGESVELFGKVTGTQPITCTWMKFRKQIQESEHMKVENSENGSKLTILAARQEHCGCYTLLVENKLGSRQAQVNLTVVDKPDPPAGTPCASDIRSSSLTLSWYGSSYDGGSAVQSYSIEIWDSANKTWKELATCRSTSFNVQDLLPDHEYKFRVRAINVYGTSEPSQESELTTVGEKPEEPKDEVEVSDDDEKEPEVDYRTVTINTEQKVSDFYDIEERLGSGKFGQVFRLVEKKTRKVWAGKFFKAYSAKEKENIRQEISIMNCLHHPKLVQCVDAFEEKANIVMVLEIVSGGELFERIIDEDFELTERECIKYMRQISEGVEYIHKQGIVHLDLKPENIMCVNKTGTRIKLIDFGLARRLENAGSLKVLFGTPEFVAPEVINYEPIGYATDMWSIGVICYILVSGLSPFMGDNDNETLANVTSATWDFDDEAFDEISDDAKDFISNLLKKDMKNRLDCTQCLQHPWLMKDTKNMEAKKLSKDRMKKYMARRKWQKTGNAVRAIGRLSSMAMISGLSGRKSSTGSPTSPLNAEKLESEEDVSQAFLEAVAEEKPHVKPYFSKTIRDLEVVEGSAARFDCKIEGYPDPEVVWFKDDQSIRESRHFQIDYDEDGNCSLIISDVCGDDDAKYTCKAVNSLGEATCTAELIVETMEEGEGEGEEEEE

Study 1
Target: HLA class I histocompatibility antigen, C alpha chain, allele C*04:01 (Homo sapiens, UniProt P10321)
Read-out: peptide-MHC binding
Form: peptide
Concentration: concentration not given
For `RPMLARLTV`, binding read “inactive”.
Under binding, `IYASRPLDF` is recorded as “inactive”.
For `LPSSSSYSY`, binding read “inactive”.
`LPAEVRAAF`: binding “inactive”.
`RMILPMSRAFR` — result for binding: “inactive”.
`VYYIVVRDF` — result for binding: “inactive”.
`SSDLRSWTF` — result for binding: “inactive”.
`YPRNGWPAL`: binding “inactive”.

Study 2
SMILES: C=CC(=O)Nc1ccc2[nH]c(=O)n(C3CCN(Cc4ccc(-c5ccc6c(c5)NC(=O)CO6)cc4)CC3)c2c1
It gave 4.8 µM for EC50 (RAC-beta serine/threonine-protein kinase (AKT2, Homo sapiens, UniProt P31751); target engagement in cells, BRET).
It gave 9.3 µM for EC50 (RAC-gamma serine/threonine-protein kinase (AKT3, Homo sapiens, UniProt Q9Y243); target engagement in cells, BRET).
It gave 1.92 µM and 1.4 µM and 7.26 µM for EC50 (RAC-alpha serine/threonine-protein kinase (AKT1, Homo sapiens, UniProt P31749); target engagement, NanoBRET; live cells).

Study 3
Target: CCNA1, cyclin fold, Cln2 fusion (human)
Method: yeast growth competition, sequencing
Medium: yeast
Setting: weak parent motif
Reference: not given
Direction: higher = stronger binding
Parent: viral docking peptide; KGVKRKLFAEDSS; partner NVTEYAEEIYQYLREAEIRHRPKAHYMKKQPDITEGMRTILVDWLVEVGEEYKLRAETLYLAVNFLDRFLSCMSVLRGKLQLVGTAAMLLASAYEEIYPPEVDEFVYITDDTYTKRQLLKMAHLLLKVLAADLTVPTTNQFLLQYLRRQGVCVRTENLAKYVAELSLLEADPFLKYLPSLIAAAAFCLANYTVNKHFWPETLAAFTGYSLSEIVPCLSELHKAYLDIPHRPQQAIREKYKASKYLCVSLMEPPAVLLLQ
`KGVKRKLFFEDSS [A9F]`: “normalised enrichment score” 0.939.
For `KGVFRKLFAEDSS [K4F]`, “normalised enrichment score” read -0.00547.
`KGVKRKLFANDSS [E10N]`: “normalised enrichment score” 0.754.
`KGVKYKLFAEDSS [R5Y]`: “normalised enrichment score” -0.00711.
Under “normalised enrichment score”, `KGVKRKLFHEDSS [A9H]` is recorded as 0.714.
`KGVHRKLFAEDSS [K4H]`: “normalised enrichment score” 0.589.
`KGVKRKLTAEDSS [F8T]`: “normalised enrichment score” 0.0699.
`KGVKLKLFAEDSS [R5L]`: “normalised enrichment score” -0.0805.

Further values, each from its own experiment
Read-out: enzyme activity
Mode: inhibitor
Concentration: 0.5 µM
For O=C1NC(=O)c2c1c1c3ccccc3n3c1c1c2c2ccccc2n1[C@H]1CC[C@@H]3O1, the remaining activity was 4.01% (Myosin light chain kinase, smooth muscle (MYLK, Homo sapiens, UniProt Q15746); reference: control).
CC(C)(C)c1cc(C=C(C#N)C#N)cc(Br)c1O gave a remaining activity of 103% (MAP kinase-activated protein kinase 3 (MAPKAPK3, Homo sapiens, UniProt Q16644)).

For quick reference, copied from above (study 1):
Under binding, `IYASRPLDF` is recorded as “inactive”.
For `LPSSSSYSY`, binding read “inactive”.
`LPAEVRAAF`: binding “inactive”.
